Measurements of several laboratories.
Protocols differ between the studies behind these lines.

Cc1c(C(=O)O)ccc2c3n(nc12)[C@@H]1[C@H](C3)N(CC2CC2)[C@@]2(C(=O)Nc3cc(Cl)ccc32)[C@H]1c1cccc(Cl)c1F — adverse event incidence (phase Ia trial, refers to: Thrombocytopenia; cancer patients; oral, dose not given): 32%
NCCONC(=O)[C@@H]1CC[C@@H]2CN1C(=O)N2OS(=O)(=O)O — adverse event incidence (refers to: leading to withdrawal; healthy Chinese men; intravenous, 2 g, treatment-emergent): 0%
O=C1CCc2ccc(OCCCCN3CCN(c4cccc(Cl)c4Cl)CC3)cc2N1 — adverse event incidence (refers to: Xerostomia; genotyped patients, CYP2D6 intermediate metabolizers; dose not given, long-acting oral or depot): 12%
FC(F)(F)c1ccc(CNc2ccc(Cc3c[nH]c4ncc(Cl)cc34)cn2)cn1 — adverse events, all grades (refers to: decreased appetite; patients with advanced solid tumours; oral, dose not given, phase Ib, related to compound): 30%
Cc1ccc(Sc2ccccc2N2CCNCC2)c(C)c1 — adverse event incidence (TEAE Diarrhea; elderly women; oral, 10 mg single dose): 12.5%
Cc1cc(Nc2ccc(S(F)(F)(F)(F)F)cc2)n2nc(C(C)(F)F)nc2n1 — adverse event sinus bradycardia (Plasmodium vivax malaria patients; oral, 600 mg): 0%
CC[C@H](C)[C@H](NC(=O)[C@H](Cc1ccccc1)NC(=O)[C@H](CCC(=O)O)NC(=O)[C@H](CCCCNC(=O)COCCOCCNC(=O)COCCOCCNC(=O)CC[C@H](NC(=O)CCCCCCCCCCCCCCCCC(=O)O)C(=O)O)NC(=O)[C@H](C)NC(=O)[C@H](C)NC(=O)[C@H](CCC(N)=O)NC(=O)CNC(=O)[C@H](CCC(=O)O)NC(=O)[C@H](CC(C)C)NC(=O)[C@H](Cc1ccc(O)cc1)NC(=O)[C@H](CO)NC(=O)[C@H](CO)NC(=O)[C@@H](NC(=O)[C@H](CC(=O)O)NC(=O)[C@H](CO)NC(=O)[C@@H](NC(=O)[C@H](Cc1ccccc1)NC(=O)[C@@H](NC(=O)CNC(=O)[C@H](CCC(=O)O)NC(=O)C(C)(C)NC(=O)[C@@H](N)Cc1cnc[nH]1)[C@@H](C)O)[C@@H](C)O)C(C)C)C(=O)N[C@@H](C)C(=O)N[C@@H](Cc1c[nH]c2ccccc12)C(=O)N[C@@H](CC(C)C)C(=O)N[C@H](C(=O)N[C@@H](CCCNC(=N)N)C(=O)NCC(=O)N[C@@H](CCCNC(=N)N)C(=O)NCC(=O)O)C(C)C — adverse event incidence (refers to: Nasopharyngitis; type 2 diabetes patients; dose not given; reference: subjects): 20%
CC(=O)O[C@H]1C(=O)[C@@]2(C)[C@H]([C@H](OC(=O)c3ccccc3)[C@]3(O)C[C@H](OC(=O)[C@H](O)[C@@H](NC(=O)c4ccccc4)c4ccccc4)C(C)=C1C3(C)C)[C@]1(OC(C)=O)CO[C@@H]1C[C@@H]2O — adverse event incidence (refers to: blood alkaline phosphatase increased; patients with advanced solid tumours; intravenous, dose not given, grade 1 and 2, possibly related to drug): 11%

Repeated from above:
CC[C@H](C)[C@H](NC(=O)[C@H](Cc1ccccc1)NC(=O)[C@H](CCC(=O)O)NC(=O)[C@H](CCCCNC(=O)COCCOCCNC(=O)COCCOCCNC(=O)CC[C@H](NC(=O)CCCCCCCCCCCCCCCCC(=O)O)C(=O)O)NC(=O)[C@H](C)NC(=O)[C@H](C)NC(=O)[C@H](CCC(N)=O)NC(=O)CNC(=O)[C@H](CCC(=O)O)NC(=O)[C@H](CC(C)C)NC(=O)[C@H](Cc1ccc(O)cc1)NC(=O)[C@H](CO)NC(=O)[C@H](CO)NC(=O)[C@@H](NC(=O)[C@H](CC(=O)O)NC(=O)[C@H](CO)NC(=O)[C@@H](NC(=O)[C@H](Cc1ccccc1)NC(=O)[C@@H](NC(=O)CNC(=O)[C@H](CCC(=O)O)NC(=O)C(C)(C)NC(=O)[C@@H](N)Cc1cnc[nH]1)[C@@H](C)O)[C@@H](C)O)C(C)C)C(=O)N[C@@H](C)C(=O)N[C@@H](Cc1c[nH]c2ccccc12)C(=O)N[C@@H](CC(C)C)C(=O)N[C@H](C(=O)N[C@@H](CCCNC(=N)N)C(=O)NCC(=O)N[C@@H](CCCNC(=N)N)C(=O)NCC(=O)O)C(C)C — adverse event incidence (refers to: Nasopharyngitis; type 2 diabetes patients; dose not given; reference: subjects): 20%
